Experimental data of several laboratories.
Lines come from different studies, so protocols differ. Several values in a cell are separate wells, animals, samples, runs or records. Numbers after ± are the reported error.
Cell line: MCF7

`Nc1cc2cccnc2c2ncccc12.[Cl-].[Cl-].[Ru+2].c1cnc2c(c1)ccc1cccnc12.c1cnc2c(c1)ccc1cccnc12` has a phototoxicity index of over 9 (MTT; reference: IC50 dark over light).
`C[C@@H]1CC[C@@H]([C@](O)(COCc2ccccc2)Cn2cnc3ccccc32)[C@H](OCc2ccccc2)C1` has an inhibition of 84.3% (cell growth or viability, MTT; 10 µM, 72 h).
Under “caspase-8 active cells”, `CC(=O)[O][Pd][c]1ccccc1N1N=C(C)C(C)(C)C1=O.CC(=O)[O][Pd][c]1ccccc1N1N=C(C)C(C)(C)C1=O` is recorded as 42.9 ± 3.68% (FLICA flow cytometry; 25 µM, 24 h).
For `COC(=O)c1cc(NC2=NC(=O)C(=Cc3ccc(C)cc3)S2)ccc1OC(C)=O`, the metabolite level was -0.84 fold change (GC-MS, refers to: Phosphorylethanolamine; 1 µM; reference: DMSO).
With `Cc1cc(C)nc(SCC(=O)Nc2ncc(Cc3cccc4ccccc34)s2)n1` the inhibition was 16.2 ± 3.5% (cell viability, MTS; 10 µM).
The IC50 of `NC(=O)c1ccc(-c2ccccc2Cl)c2c3c([nH]c12)CCC(N)C3` (centres unmarked) is reported as 0.026 µM (cell growth or viability).
For `CSC(=S)N/N=C(\C)c1ccc(S(=O)(=O)N2CCC(C)CC2)cc1`, “late apoptotic cells” read 8.88% (annexin V/PI; concentration not given, 72 h, at IC50).
The EC50 of `CC(=S)NCCCC[C@H](NC(=O)OCc1ccccc1)C(=O)N[C@@H](Cc1c[nH]c2ccccc12)C(=O)NC(C)C` is reported as 62.8 to 69 µM (cell growth or viability, MTT; 72 h).
With `CCC(=CCc1c(O)cc2c(c1O)C(=O)CC(c1cccc(O)c1)O2)CC` (centres unmarked) the growth inhibition was 14.9% (cytotoxicity, MTT; 3.393 µM, 48 h).
`CC(=NN=c1sc(C(=O)c2ccccc2)nn1-c1ccccc1)c1ccc(S(=O)(=O)N2CCC(C)CC2)cc1` — result for “cells in S phase”: 33.1% (flow cytometry; 4.29 µM (IC50), 72 h).
`CCC(=CCc1c(O)cc2c(c1O)C(=O)CC(c1ccccc1O)O2)CC` (centres unmarked) gave a growth inhibition of -6.25% (cytotoxicity, MTT; 6.786 µM, 48 h).
Under “caspase-3/7 active cells”, `CC(=O)[O][Pd][c]1ccccc1-n1nc(C)cc1C.CC(=O)[O][Pd][c]1ccccc1-n1nc(C)cc1C` is recorded as 57.6 ± 3.64% (FLICA flow cytometry; 25 µM, 24 h).
`COc1ccc(CNC[C@@](O)(COCc2ccccc2)[C@@H]2CC[C@@H](C)C[C@H]2OCc2ccccc2)cc1` has an inhibition of 93.3% (cell growth or viability, MTT; 10 µM, 72 h).
`CC[C@@H]([C@@H](C)c1ccc(O)cc1)[C@@H](CC)c1ccc(O)cc1` gave an EC50 of 0.0076 µM (cell growth or viability, ATP luminescence; 5 days).
The EC50 of `CCCCCCCCCCCCNC(=S)NCCCC[C@H](NC(=O)OCc1ccccc1)C(=O)N[C@H](C)C(=O)N[C@@H](CCCNC(=N)N)C(N)=O` is reported as 28.7 to 45.6 µM (cell growth or viability, MTT; 72 h).
The inhibition of `C[C@@H]1CC[C@@H]([C@@](O)(CNCc2ccc(F)cc2)COCc2ccccc2)[C@H](OCc2ccccc2)C1` is reported as 83.6% (cell growth or viability, MTT; 30 µM, 72 h).
`CC(=O)[O][Pd][c]1cc(C)ccc1N1N=C(C)C(C)(C)C1=O.CC(=O)[O][Pd][c]1cc(C)ccc1N1N=C(C)C(C)(C)C1=O`: “caspase-8 active cells” 39.4 ± 1.61% (FLICA flow cytometry; 25 µM, 24 h).
`CSC(=S)N/N=C(\C)c1ccc(Nc2nnc(-c3ccc(Cl)cc3)c3ccccc23)cc1` gave a viability of 9.78% (cell growth or viability, MTT; 1.25 µM, 24 h).
Under “cells in G2/M phase”, `CC(C)C[C@@H](NC(=O)[C@H](C)NC(=O)CNC(=O)[C@@H](NC=O)C(C)C)C(=O)N[C@@H](C)C(=O)N[C@@H](C(=O)N[C@H](C(=O)N[C@@H](C(=O)N[C@@H](Cc1c[nH]c2ccccc12)C(=O)N[C@H](CC(C)C)C(=O)N[C@@H](Cc1c[nH]c2ccccc12)C(=O)N[C@H](CC(C)C)C(=O)N[C@@H](Cc1c[nH]c2ccccc12)C(=O)N[C@H](CC(C)C)C(=O)N[C@@H](Cc1c[nH]c2ccccc12)C(=O)NCCO)C(C)C)C(C)C)C(C)C` is recorded as 24.9 ± 0.67% (flow cytometry; 500 nM, 48 h).
`Cc1c(COc2cc(OCc3cccc(C#N)c3)c(CNC(CO)(CO)CO)cc2Cl)cccc1-c1cccc(OCCCCCC(=O)NO)c1`: “G1 phase cells” 45.2% (flow cytometry, PI staining; 5 µM, 48 h).
Under “late apoptotic cells”, `CSC(=NN=C(C)c1ccc(S(=O)(=O)N2CCC(C)CC2)cc1)N(C)C` is recorded as 8.38% (annexin V/PI; concentration not given, 72 h, at IC50).
With `CCC(=CCc1c(O)cc2c(c1O)C(=O)CC(c1ccc(OC)c(O)c1)O2)CC` (centres unmarked) the growth inhibition was 2.6% (cytotoxicity, MTT; 0.627 µM, 48 h).
For `COc1ccc(CNC[C@@](O)(COCc2ccc(OC)cc2)[C@@H]2CC[C@@H](C)C[C@H]2OCc2ccc(OC)cc2)cc1`, the inhibition was 99% (cell growth or viability, MTT; 30 µM, 72 h).
With `CCN(C(=O)c1cc(F)ccc1Oc1nncnc1N1CCC2(C1)CN([C@H](CCCN(C)CCOC)C(C)C)C2)C(C)C` the GI50 was over 10 µM (cell growth or viability; 7 days).
`Oc1ccnc(-c2cc(O)ccn2)c1.[Cl-].[Cl-].[Ru+2].c1ccc(-c2ccnc3c2ccc2c(-c4ccccc4)ccnc23)cc1.c1ccc(-c2ccnc3c2ccc2c(-c4ccccc4)ccnc23)cc1` has a phototoxicity index of over 200 (cell viability; reference: dark EC50 over light EC50).
`COc1ccc(C2CC(=O)c3c(cc(O)c(CC=C(C)C)c3O)O2)cc1` (centres unmarked) gave a growth inhibition of 4.87% (cytotoxicity, MTT; 2.822 µM, 48 h).
`COc1ccccc1CNC[C@](O)(COCc1ccccc1)[C@@H]1CC[C@@H](C)C[C@H]1OCc1ccccc1` gave an inhibition of 84.9% (cell growth or viability, MTT; 10 µM, 72 h).
For `O=C(Nc1nnc2c1c(-c1ccc(Cl)cc1)nc1sc(=Cc3ccco3)c(=O)n12)c1ccccc1` (mixture of isomers), the cell growth was 52.1% (SRB; 10 µM, NCI60 single-dose screen; reference: untreated).
`COCCCCCNc1nc(NCCCCCCN(C)C)c2cc(NC(=O)/C=C/CN(C)C)ccc2n1` has a viability of 0.882 and 0.917 (CellTiter-Glo; 1.562 µM, 72 h, unit not given; reference: DMSO-treated cells).
For `COc1cccc(CNC[C@](O)(COCc2ccccc2)[C@@H]2CC[C@@H](C)C[C@H]2OCc2ccccc2)c1`, the inhibition was 95.1% (cell growth or viability, MTT; 30 µM, 72 h).
`C=CCc1c(O)cc2c(c1O)C(=O)CC(c1ccc(O)cc1)O2` (centres unmarked) has a growth inhibition of 58.2% (cytotoxicity, MTT; 128.1 µM, 48 h).
`C[C@@H]1CC[C@@H]([C@@](O)(CNCc2ccccc2F)COCc2ccccc2)[C@H](OCc2ccccc2)C1` gave an inhibition of 91.9% (cell growth or viability, MTT; 30 µM, 72 h).
The metabolite level of `COC(=O)c1cc(NC2=NC(=O)C(=Cc3ccc(N(C)C)cc3)S2)ccc1OC(C)=O` is reported as 0.54 fold change (GC-MS, refers to: Stearic acid; 1 µM; reference: DMSO).
With `C[C@@H]1CC[C@@H]([C@](O)(CNCc2cccc(F)c2)COCc2ccccc2)[C@H](OCc2ccccc2)C1` the inhibition was 96.2% (cell growth or viability, MTT; 30 µM, 72 h).
`C/C(=N\N=C1/NC(=O)CS1)c1c(O)c2ccccc2oc1=O` has a selectivity index of over 3.8 (cell growth, MTT; reference: IC50 BJ-1 over MCF7).
